# Published values pooled from the literature.
# Every numbered part comes from another study and shows a few of its results, in no order. Changes are numbered by the printed parent chain.

# Sample 1
# Target: Prothrombin, mature alpha-thrombin (F2, Homo sapiens, UniProt P00734)
# Technique: aptamer microarray, sandwich
# Form: DNA with 2'F-ANA
# Medium: in vitro
# Tested at: 200 nM
# Setting: whole 15-mer aptamer, many near background
# With: Cy3 exosite-II aptamer, 400 nM
# Reading: higher = stronger binding
# Oligonucleotide: GGTTGGTGTGGTTGG
Modification,mean fluorescence intensity [a.u.]
2'F-ANA at 1 7 11 14,56.6
2'F-ANA at 3 4 7 8 10 11 13 14,188
2'F-ANA at 1 3 7 8 9,354
2'F-ANA at 1 2 4 7 8 9 11 15,113
2'F-ANA at 1 5 6 7 9 11 12 13,65.1
2'F-ANA at 1 2 3 4 6 7 9 10 11 12 13 14,106
2'F-ANA at 2 4 5 7 10 14,47.4
2'F-ANA at 4 5 6 7 9 10 11,81.5
2'F-ANA at 1 2 6 7 11 12 15,217
2'F-ANA at 2 4 6 7 12 13 14,108
2'F-ANA at 2 3 4 6 8 9 13 15,405
2'F-ANA at 4 6 7 8 12 13,443
2'F-ANA at 1 6 7 15,195
2'F-ANA at 1 3 4 5 8 9 11 13 14 15,55.4
2'F-ANA at 2 4 5 7 11 13 14,47.2
2'F-ANA at 2 3 4 6 7 8 9 13,388
2'F-ANA at 5 7 8 13 15,61.7
2'F-ANA at 1 2 5 6 7 8 10 14 15,55.2
2'F-ANA at 1 2 4 5 6 8 9 11 12 13 15,65.9

# Sample 2
# Target: MAFG, bZIP domain (human)
# Technique: DHFR protein complementation
# Medium: yeast
# Setting: single substitutions, most at no-binding floor
# Baseline: wild-type JUN-FOS pair
# Reading: higher = stronger binding
# Starting sequence: JUN, bZIP domain (human); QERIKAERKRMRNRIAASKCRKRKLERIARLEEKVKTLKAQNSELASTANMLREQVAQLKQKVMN; partner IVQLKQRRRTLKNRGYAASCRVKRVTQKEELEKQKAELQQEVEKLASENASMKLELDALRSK
Substitution,binding fitness [natural log]
I28P,-1.49
N42L,-1.16
K34G,-1.53
V56G,-1.5
Q41A,-1.16
E44C,-1.2
T37Q,-1.5
A29D,-1.57
K36R,-1.34
T37F,-1.58
M51K,-1.37
S43L,-1.47
V35T,-1.15
A46G,-1.47
V56E,-1.52
K34L,-1.5
K36W,-1.53
E54D,-1.55
L45K,-1.47
R30F,-1.37
L38H,-1.49
T37R,-1.45
A57L,-1.27
A46N,-1.52
K39P,-1.5

# Sample 3
# Target: CCND3, cyclin fold, Cln2 fusion (human)
# Technique: yeast growth competition, sequencing
# Medium: yeast
# Setting: weak parent motif
# Baseline: not given
# Reading: higher = stronger binding
# Starting sequence: ORC1 docking peptide (human); PRARKRLELGNLG; partner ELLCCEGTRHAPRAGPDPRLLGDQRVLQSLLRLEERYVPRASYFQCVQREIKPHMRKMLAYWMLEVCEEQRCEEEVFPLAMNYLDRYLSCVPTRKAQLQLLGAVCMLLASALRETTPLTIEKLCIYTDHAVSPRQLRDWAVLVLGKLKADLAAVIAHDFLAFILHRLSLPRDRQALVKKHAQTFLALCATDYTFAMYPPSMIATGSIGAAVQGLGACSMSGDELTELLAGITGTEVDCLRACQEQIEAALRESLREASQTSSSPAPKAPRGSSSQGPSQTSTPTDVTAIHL
Substitution,normalised enrichment score
PRARKKLELGNLG [R6K],0.0967
PRARARAELGNLG [K5A L7A],0.22
PRARKRNELGNLG [L7N],0.0577
PRARQRLELGNLG [K5Q],0.0899
PRARKRLNLGNLG [E8N],0.143
PRARKRLEIGNLG [L9I],0.173
PRARKRLEDGNLG [L9D],0.111
PRARKRLELGNKG [L12K],0.107
PRARKRLEKGNLG [L9K],0.14
PRARKRLKLGNLG [E8K],0.0615
PRARKRLEPGNLG [L9P],0.0486
PPARKRLELGNLG [R2P],0.123
PRARKRLELGMLG [N11M],0.22
PRARKRLELENLG [G10E],-0.0435
PRARKRLELGVLG [N11V],0.158
PRARKRLELFNLG [G10F],0.158
PRARKPLELGNLG [R6P],0.0878
PRARKRLELKNLG [G10K],0.072

# Sample 4
# Target: RNA binding protein fox-1 homolog 2, RRM domain, GST-SBP tag (RBFOX2, Homo sapiens, UniProt O43251-10, residues 100-194)
# Technique: RNA Bind-n-Seq
# Form: RNA
# Medium: in vitro
# Tested at: 365 nM
# Setting: natural RNA segment, single round, ends assumed
# Baseline: no-protein control
# Reading: higher = stronger binding
# Constant ends, left off below: GGGAGUUCUACAGUCCGACGAUC … UGGAAUUCUCGGGUGCCAA
# Residues (chain): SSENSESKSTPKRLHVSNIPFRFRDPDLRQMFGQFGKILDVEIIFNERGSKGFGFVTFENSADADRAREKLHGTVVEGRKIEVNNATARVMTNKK
Oligonucleotide,RBNS enrichment (R)
GUAAUUUUACUCUGACCUGCCGCAGUCACCUCUCACUUAUCUCUUCCACGUACUGCACGGUCGUAUUUCAUGAGCUUUCUGUCCAUAGCACAGAAACAGAGCAGAAAGUA,1.02
AAGUAAAUAAAAGCCUUCGGUAAUAAUCAUGACAAUACAAGAGGCUGAGCUAGGCUACAGGGGAAAACUAUUGUGUUGUAAAGUUGCAUCGCUAUUUUAUAUUAAAAUGU,0.463
GAAGAGAGGGACACUGUCGUGUCAGUAGCCGCAGGGUCCCCUUUAAGAUGUGUAUAUCGACACUAGGUCAGAAAGUGUAUGCGUUAUAAUAAAGUUCUGGUUCUAACUCC,0.575
AGCAUUGCGCAAUUAGGUUGUUCCUUAUUUGCUUUGUUGUACUACCUGUGUAUAUAGUUUUUAUCUUUUACUCUGUAGCACAUAAACGUUAGGGAUGGGAGGGCAGGGUG,0.425
CCUCUUCAAGUUGUAACCGUGGCGGCUUUGUCCAUUACUGUUGCUAUUCUGCACACAUAUCGGAAGCAGCAAGCGCUUUACACACUUGAGUAGUGGGAUAAGUCACUGUU,0.268
AAAGGGAAACUAAAUUGUUCCCUGGAUUCCAGGAGAUGGUCGGCACAGAUGGUCGUCACGUGGGACCUGGAAUUGGAGACACUGCAGCGAGCAGCUAGAAAGCCUCUUGU,0.295
CCCAAAAGUGUCCUCGGCAUGGAUCUUGAACAGAACCAGUAUCUGUCAUGGAACUGAACAUUCAUCGAUGGUCUCCAUGUAUUCAUUUAUUCACUUGUUCAUUCAAGUAU,0.262
UUGCUCCCUUGAUCCCCCCCUUUUUUUGUCCCUUCGAAGAGUAAAUGCUUUGUAUUUCUUUCUUUAAAAAAUUUACUUUAAAGAAGAAGCCACUUGAACCUUCAAUAAAG,0.602
UCCGCCAUACUGUUCUGGUGAUAGUGAAUAGAUCUCAUGAGAGCUGAUGAUUUUAUAAGAGGUUUCCCCUUUUGCUUAGUUCUCAUUCUCUCUUGCCUGCCGCCAUGUAA,0.286
CAGCCUCUGGGUCCAGCCAGAGCCCCUGGCUUCUCCGCCACCCACACCCUUCCCACCCUGCUGUGGGGCCCUGCCUUUGUGGGGAGCAGCCAGCCCUCUGCCCCUGCCCA,0.347
UUGGGUGUUAGCUUGAGAUGGUUAAAGGUGGUUUGGGGAGGGACUUCGUUGUAAUGGUUUUGCUGUAAAAAAUGUUUCCAACUCCGCUGAAAUGUUGCUGAAAAGCAUGG,1.06
UUACAAACUGUAAGACACAUUUUUUUGUGUGUUUGUUUUUGUUGUUGUUCUUUUGCAGCACUCACGCCUCUGACAGUCUUUUGGGAAAGAGUAACACCCACAUACAGAAU,0.469

# Sample 5
# Target: ABI1, truncated, D143A, DHFR fusion (Arabidopsis thaliana)
# Technique: DHFR PCA, deep sequencing
# Medium: yeast
# Setting: methotrexate growth selection, single substitutions
# With: (+)-ABA 0 µM
# Baseline: wild-type fitted maximum
# Reading: higher = stronger binding
# Starting sequence: PYL1, truncated, DHFR fusion (Arabidopsis thaliana); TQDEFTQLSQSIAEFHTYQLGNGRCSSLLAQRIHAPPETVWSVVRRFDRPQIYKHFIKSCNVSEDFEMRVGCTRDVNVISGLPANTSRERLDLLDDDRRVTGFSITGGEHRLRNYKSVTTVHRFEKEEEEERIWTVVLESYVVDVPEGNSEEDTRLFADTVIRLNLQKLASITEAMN
Substitution,relative binding score
T1I,30.3%
A175K,20.6%
E38M,4.79%
K168A,-12.5%
T119C,-3.02%
R99K,40.2%
E4L,24.1%
L169Q,5.68%
P36R,10.7%
E4N,5.66%
R74F,0.937%
D97V,24.3%
E128Q,23.4%
D153L,-1.9%
N85W,44.6%
Q167F,-6.23%
Q2F,73.8%
R88K,31.8%
R88G,-2.33%
P37A,19.7%
E129F,10.7%

# Mixed results
Molecule,target,assay,test system,setting,how to read,measurement,result
"PhoQ, residues 284 288 289 292 302 303 NLSRDF","PhoP, residues 12 14 15 18 19 HEGLL (Escherichia coli, UniProt P23836)","Sort-seq, measured: YFP reporter",E. coli,"PhoQ-PhoP variant library, with: 10 µM Mg2+","baseline: high Mg2+ state, higher = stronger signaling",fold induction,17

# Excerpt of the above (sample 4):
Oligonucleotide,RBNS enrichment (R)
AAGUAAAUAAAAGCCUUCGGUAAUAAUCAUGACAAUACAAGAGGCUGAGCUAGGCUACAGGGGAAAACUAUUGUGUUGUAAAGUUGCAUCGCUAUUUUAUAUUAAAAUGU,0.463
GAAGAGAGGGACACUGUCGUGUCAGUAGCCGCAGGGUCCCCUUUAAGAUGUGUAUAUCGACACUAGGUCAGAAAGUGUAUGCGUUAUAAUAAAGUUCUGGUUCUAACUCC,0.575
AGCAUUGCGCAAUUAGGUUGUUCCUUAUUUGCUUUGUUGUACUACCUGUGUAUAUAGUUUUUAUCUUUUACUCUGUAGCACAUAAACGUUAGGGAUGGGAGGGCAGGGUG,0.425
CCUCUUCAAGUUGUAACCGUGGCGGCUUUGUCCAUUACUGUUGCUAUUCUGCACACAUAUCGGAAGCAGCAAGCGCUUUACACACUUGAGUAGUGGGAUAAGUCACUGUU,0.268
AAAGGGAAACUAAAUUGUUCCCUGGAUUCCAGGAGAUGGUCGGCACAGAUGGUCGUCACGUGGGACCUGGAAUUGGAGACACUGCAGCGAGCAGCUAGAAAGCCUCUUGU,0.295
CCCAAAAGUGUCCUCGGCAUGGAUCUUGAACAGAACCAGUAUCUGUCAUGGAACUGAACAUUCAUCGAUGGUCUCCAUGUAUUCAUUUAUUCACUUGUUCAUUCAAGUAU,0.262
UUGCUCCCUUGAUCCCCCCCUUUUUUUGUCCCUUCGAAGAGUAAAUGCUUUGUAUUUCUUUCUUUAAAAAAUUUACUUUAAAGAAGAAGCCACUUGAACCUUCAAUAAAG,0.602
UCCGCCAUACUGUUCUGGUGAUAGUGAAUAGAUCUCAUGAGAGCUGAUGAUUUUAUAAGAGGUUUCCCCUUUUGCUUAGUUCUCAUUCUCUCUUGCCUGCCGCCAUGUAA,0.286
CAGCCUCUGGGUCCAGCCAGAGCCCCUGGCUUCUCCGCCACCCACACCCUUCCCACCCUGCUGUGGGGCCCUGCCUUUGUGGGGAGCAGCCAGCCCUCUGCCCCUGCCCA,0.347
UUGGGUGUUAGCUUGAGAUGGUUAAAGGUGGUUUGGGGAGGGACUUCGUUGUAAUGGUUUUGCUGUAAAAAAUGUUUCCAACUCCGCUGAAAUGUUGCUGAAAAGCAUGG,1.06
